Experimental data pooled from the literature.
Lines come from different studies, so protocols differ. ± marks the error that the study gave.
Organism: SARS-CoV-2

Structure (SMILES) | assay | system | setting | EC50
CC(C)C[C@H](NC(=O)OCc1ccccc1)C(=O)N[C@@H](CC1CCNC1=O)C(O)S(=O)(=O)O (stereo partly shown) | viral replication | Vero E6 | 96 h | 10000 ± 4200 nM
O=C(c1ccc(Cl)cc1)N1CCCC2=CC3CC(CN4CCCCC34)C21 (stereo not shown) | pseudovirus entry |  | pseudovirus | 236000 nM
COCCCCNC(=O)CC(Cc1ccc(F)cc1)NC(=O)C(Cc1ccc(Cl)cc1Cl)NC(=O)C(N)Cc1ccccc1C#N (stereo not shown) | viral replication | USA-WA1/2020 | 24 h | 400 nM
Cc1ccc(NCCN(C)CCNc2ccnc3cc(Cl)ccc23)c2c(=O)c3ccccc3sc12 | cytopathic effect | Vero E6 | 72 h | 3280 ± 570 nM
O=C(CNc1ccc(I)cc1)N1CCCC2=CC3CC(CN4CCCCC34)C21 (stereo not shown) | pseudovirus entry |  | pseudovirus | 9400 nM
COc1cccc2[nH]c(C(=O)N[C@@H](CC(C)C)C(=O)N[C@@H](C[C@@H]3CCNC3=O)C(=O)c3nc4ccccc4s3)cc12 | viral replication, RT-qPCR | VeroE6, WK-521 |  | 2200 ± 530 nM
O=C(NC12CC3CC(CC(C3)C1)C2)N1CCCC2=CC3CC(CN4CCCCC34)C21 (stereo not shown) | pseudovirus entry |  | pseudovirus | 52900 nM
O=C1CC(c2ccccc2)Oc2cc(O[C@@H]3O[C@H](CO)[C@@H](O)[C@H](O)[C@H]3O)ccc21 (stereo partly shown) | viral replication | Vero |  | > 100000 nM
Cc1cc(C(=O)COn2nnc3ccc(S(C)(=O)=O)cc32)c(C)n1C | viral replication |  |  | > 100000 nM
CC(C)(C)[C@H](NC(=O)C(F)(F)F)C(=O)N1C[C@H]2[C@@H]([C@H]1C(=O)N[C@H](C#N)C[C@@H]1CCNC1=O)C2(C)C | dsRNA staining | Calu-3, Omicron BA.5 |  | 700 nM
Oc1c(Br)cc(Br)c2cccnc12 | viral replication, immunofluorescence | Vero E6, wild type | 24 h | 4590 nM
CC(=O)OC1(C)CC(C=C(C)CCC=C(C)C)OC2(C=C(CO)C3CC(=O)C(C)=CC3O2)C1 (stereo not shown) | viral replication | Calu-3, mNeonGreen reporter |  | 106 nM
O=C(c1cccc(-n2cccc2)c1)N1CCCN(S(=O)(=O)c2ccc(F)cc2)CC1 | viral replication |  |  | > 100000 nM
Cc1ccc(CNC(=O)c2c(Cl)cc(Cl)cc2Cl)cc1C(=O)N[C@H](C)c1cccc2ccccc12 | viral replication | Vero C1008, WK-521 ancestral Wuhan |  | 34900 ± 2000 nM
CN(C)S(=O)(=O)c1ccc2c(c1)N(CCCN1CCC(CCO)CC1)c1ccccc1S2 | viral replication, high-content imaging screen |  | cell-based | > 100000 nM
O=C(NC1CCC(F)(F)CC1)C(c1cncnc1)N(C(=O)C(F)Cl)c1ccc(-c2cncs2)cc1 (stereo not shown) | viral replication | Vero |  | 2150 nM
CCn1ccc(-c2cc(-c3cnn(CCOC)c3)cc([C@@H](C)NC(=O)c3cc(OCCN(C)C)ccc3C)c2)n1 | viral replication | Caco-2, icSARS-CoV-2-nLuc reporter |  | 960 nM
CN(C)CCCCNC(=O)C[C@H](Cc1ccccc1)NC(=O)[C@@H](Cc1ccc(Cl)cc1Cl)NC(=O)[C@H](N)Cc1ccccc1C#N | viral replication | USA-WA1/2020 | 24 h | 3100 nM
Cc1ccc(N2CC3CC(C2)N3)cc1C(=O)NC1(c2ccc3c4c(cccc24)C(=O)N3C)CC1 | viral replication | Vero C1008, Omicron BA.5 |  | 200 nM
Cc1cc(C)cc(NC(=O)N2CCCC3=CC4CC(CN5CCCCC45)C32)c1 (stereo not shown) | pseudovirus entry |  | pseudovirus | 151000 nM
COc1c(CNC(=O)c2cc(C3CC3)nn2C)cccc1OC(F)(F)F | viral replication | Vero C1008, WA1/2020 |  | 100 nM
O=CN(CCCc1cn(-c2ccc(CN3CCOCC3)cc2)nn1)CCNc1ccnc2cc(Cl)ccc12 | viral replication | Caco-2 | 30 h | 22900 ± 12400 nM
Cc1cc(Cl)ccc1C(=O)NCc1ccc(C)c(C(=O)N[C@H](C)c2cccc3ccccc23)c1 | viral replication | Vero C1008, WK-521 ancestral Wuhan |  | > 100000 nM
Cc1ccc(N2CCN(C)CC2)cc1C(=O)NC1(c2ccc3c4c(cccc24)CC3)CC1 | viral replication | Vero C1008, Omicron BA.5 |  | 860 nM
CC(C)[C@H](NC(=O)c1ccccc1[Se][Se]c1ccccc1C(=O)N[C@H](C(=O)O)C(C)C)C(=O)O | viral replication, RT-qPCR | Vero | 48 h | 32000 nM
CN1CCN(CCCNC(=O)C[C@H](Cc2ccc(F)cc2)NC(=O)[C@@H](Cc2ccc(Cl)cc2Cl)NC(=O)[C@H](N)Cc2ccccc2C#N)CC1 | viral replication | USA-WA1/2020 | 24 h | 800 nM

Structure (SMILES) | assay | system | setting | EC50
CO/C1=C\C(C)=C\[C@@H](C)[C@@H](O)[C@@H](C)C/C(C)=C/C=C/[C@H](OC)[C@@H]([C@@H](C)[C@@H](O)[C@H](C)C(=O)/C=C/[C@H](C)[C@H](O)C(C)C)OC1=O | viral replication, measured: nucleocapsid protein | Calu-3, Omicron BA.5 |  | 43.9 nM
Cc1ccc(CNC(=O)c2cccc(I)c2)cc1C(=O)N[C@H](C)c1cccc2ccccc12 | viral replication | Vero C1008, WK-521 ancestral Wuhan |  | > 100000 nM
N#Cc1ccccc1C[C@@H](N)C(=O)N[C@H](Cc1ccc(Cl)cc1Cl)C(=O)N[C@H](CC(=O)NCCCNc1nnc(N)[nH]1)Cc1ccc(F)cc1 | viral replication | USA-WA1/2020 | 24 h | > 10000 nM
COCn1cc(-c2cc(-c3cnn(C(F)F)c3)cc([C@@H](C)NC(=O)c3cc(OCCN(C)C)ccc3C)c2)cn1 | viral replication | Caco-2, icSARS-CoV-2-nLuc reporter |  | 320 nM
Oc1ccc(CCCCCCCCC(O)c2c(O)cccc2O)cc1O (stereo not shown) | MTT | Vero E6/TMPRSS2, WK-521 ancestral |  | 5400 nM
CCOC(=O)[C@@H](NC(=O)c1ccccc1[Se][Se]c1ccccc1C(=O)N[C@H](C(=O)OCC)C(C)C)C(C)C | viral replication, RT-qPCR | Vero | 48 h | 15000 nM
C[C@@H]1O[C@@H](n2c3ccccc3c3c4c(c5c6ccccc6[nH]c5c32)CNC4=O)C[C@@H](N)[C@H]1O | viral replication, measured: nucleocapsid protein | Calu-3, Omicron BA.5 |  | 80 nM
CN(C)c1ccc(N(Cc2cc(Cl)cs2)C(=O)Cc2cncc3cccc(O)c23)cc1 | viral replication, dsRNA staining | Calu-3, Omicron BQ.1.1 |  | 28 nM
COc1cc(O)ccc1CN(C)[C@H](C)c1cccc2ccccc12 | viral replication | Vero E6, USA-WA1/2020 | 24 h | > 60000 nM
[2H]C1([2H])CC[C@@H](C[C@@H](C#N)NC(=O)[C@@H]2[C@@H]3[C@H](CN2C(=O)[C@@H](NC(=O)C(F)F)C(C)(C)C)C3(C)C)C(=O)N1 | viral replication | Canada/VIDO 01/2020 | together with: efflux inhibitor CP-100356 | 40 nM
Cc1ccc(CNC(=O)c2ccccc2Br)cc1C(=O)N[C@H](C)c1cccc2ccccc12 | viral replication | Vero C1008, WK-521 ancestral Wuhan |  | 59200 ± 4400 nM
Nc1ncnc2c1ncn2[C@@H]1O[C@H](CSCc2cccc(C(=O)O)c2)[C@@H](O)[C@H]1O | viral replication, N protein immunofluorescence | Calu-3 | 24 h | > 200000 nM
Cc1ccc(OCCN(C)C)cc1C(=O)N[C@H](C)c1cc(-c2cnn(C)c2)cc(-c2cnn(C(C)C)c2)c1 | viral replication | Caco-2, icSARS-CoV-2-nLuc reporter |  | 450 nM
N#Cc1ccccc1C[C@@H](N)C(=O)N[C@H](Cc1ccc(Cl)cc1Cl)C(=O)NCCc1ccc(F)cc1 | viral replication | USA-WA1/2020 | 24 h | 2900 nM
O=S(=O)(c1ccc(Cl)c(Cl)c1)N1CCCC2=CC3CC(CN4CCCCC34)C21 (stereo not shown) | pseudovirus entry |  | pseudovirus | 137000 nM
C#CCCCNC(=O)CC(Cc1ccc(F)cc1)NC(=O)C(Cc1ccc(Cl)cc1Cl)NC(=O)C(N)Cc1ccccc1C#N (stereo not shown) | viral replication | USA-WA1/2020 | 24 h | 600 nM
CC(C)CC(C(=O)N1CC2(CC1C#N)C(=O)Nc1ccccc12)N(C)C(=O)c1cc2c(F)cc(F)c(F)c2[nH]1 (stereo not shown) | viral replication | Vero E6 |  | 15 nM
CCOc1ccc2nc3cc(N)ccc3c(N)c2c1 | viral replication, plaque | Vero C1008 | 16 h | 80 ± 10 nM
CC(C)CCC1=C(O)C(=O)c2ccccc2C1=O | viral replication | Calu-3 | 48 h | 1800 ± 200 nM
C[C@H](c1cccc2ccccc12)N(C)Cc1ccc2[nH]ncc2c1 | viral replication | Vero E6, USA-WA1/2020 | 24 h | ≤ 10000 nM
O=C(c1cncc2cc[nH]c12)N1CCC(=C2c3ccccc3CS(=O)(=O)c3ccccc32)CC1 | viral replication | USA-WA1/2020 |  | 14 nM
COc1ccc(Cl)cc1C(=O)NCc1ccc(C)c(C(=O)N[C@H](C)c2cccc3ccccc23)c1 | viral replication | Vero C1008, WK-521 ancestral Wuhan |  | 18900 ± 700 nM
N#Cc1ccccc1CC(N)C(=O)NC(Cc1ccc(Cl)cc1Cl)C(=O)NC(CC(=O)NCCCc1ccncc1)Cc1ccc(F)cc1 (stereo not shown) | viral replication | USA-WA1/2020 | 24 h | 1000 nM
Clc1cc(Cl)cc(CCCN2CCCC3=CC4CC(CN5CCCCC45)C32)c1 (stereo not shown) | pseudovirus entry |  | pseudovirus | 7400 nM
CN(C)c1ccc(N(Cc2cc(Cl)cs2)C(=O)Cc2cncc3ccccc23)cc1 | dsRNA staining | Calu-3, Omicron BA.5 |  | 300 nM
C#CCCCNCCNc1ccnc2cc(Cl)ccc12 | viral replication | Vero 76, MUC-IMB-1/2020 | 30 h | 2900 ± 2500 nM

Repeated from above:
Structure (SMILES) | assay | system | setting | EC50
COc1cc(O)ccc1CN(C)[C@H](C)c1cccc2ccccc12 | viral replication | Vero E6, USA-WA1/2020 | 24 h | > 60000 nM
O=C(c1ccc(Cl)cc1)N1CCCC2=CC3CC(CN4CCCCC34)C21 (stereo not shown) | pseudovirus entry |  | pseudovirus | 236000 nM
COc1ccc(Cl)cc1C(=O)NCc1ccc(C)c(C(=O)N[C@H](C)c2cccc3ccccc23)c1 | viral replication | Vero C1008, WK-521 ancestral Wuhan |  | 18900 ± 700 nM
CN(C)c1ccc(N(Cc2cc(Cl)cs2)C(=O)Cc2cncc3cccc(O)c23)cc1 | viral replication, dsRNA staining | Calu-3, Omicron BQ.1.1 |  | 28 nM
Cc1ccc(N2CCN(C)CC2)cc1C(=O)NC1(c2ccc3c4c(cccc24)CC3)CC1 | viral replication | Vero C1008, Omicron BA.5 |  | 860 nM
Cc1ccc(NCCN(C)CCNc2ccnc3cc(Cl)ccc23)c2c(=O)c3ccccc3sc12 | cytopathic effect | Vero E6 | 72 h | 3280 ± 570 nM
